Assay results collected from several papers.
Every numbered part comes from another study and shows a few of its results, in no order. Changes are numbered by the printed parent chain.

Set 1
Target: ABI1, truncated, D143A, DHFR fusion (Arabidopsis thaliana, UniProt P49597)
Method: DHFR PCA, dose-response
Matrix: yeast
Setting: Hill fit, not affinity, not high confidence
With: (+)-ABA, dose series
Direction: lower = more sensitive
Parent: PYL1, truncated, DHFR fusion (Arabidopsis thaliana, UniProt Q8VZS8); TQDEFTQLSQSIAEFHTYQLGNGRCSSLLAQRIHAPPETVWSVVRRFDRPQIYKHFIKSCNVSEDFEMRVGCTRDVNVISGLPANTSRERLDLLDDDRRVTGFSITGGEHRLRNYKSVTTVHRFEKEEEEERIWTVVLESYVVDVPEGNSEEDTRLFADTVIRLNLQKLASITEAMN
`I57K` gave an ABA EC50 of 24 µM.
`K168P` gave an ABA EC50 of 2.57 µM.
With `H16M` the ABA EC50 was 691 µM.
For `Y115D`, the ABA EC50 was 0.0789 µM.
For `P50N`, the ABA EC50 was 4.53 µM.
The ABA EC50 of `V137K` is reported as 2.28 µM.
`V118E` gave an ABA EC50 of 356 µM.
`A170Y` gave an ABA EC50 of 777 µM.
The ABA EC50 of `V40S` is reported as 940 µM.
For `S117V`, the ABA EC50 was 766 µM.
For `R46F`, the ABA EC50 was 200 µM.
With `L138G` the ABA EC50 was 2.67 µM.
`P83N` has an ABA EC50 of 397 µM.
`N165I` has an ABA EC50 of 0.191 µM.
For `G108W`, the ABA EC50 was 1880 µM.
With `Y115A` the ABA EC50 was 15.5 µM.

Set 2
Target: CCNE2, cyclin fold, Cln2 fusion (human)
Method: yeast growth competition, sequencing
Matrix: yeast
Setting: weak parent motif
Reference: not given
Direction: higher = stronger binding
Parent: SLBP docking peptide (human); ARYKRKLLINDFG; partner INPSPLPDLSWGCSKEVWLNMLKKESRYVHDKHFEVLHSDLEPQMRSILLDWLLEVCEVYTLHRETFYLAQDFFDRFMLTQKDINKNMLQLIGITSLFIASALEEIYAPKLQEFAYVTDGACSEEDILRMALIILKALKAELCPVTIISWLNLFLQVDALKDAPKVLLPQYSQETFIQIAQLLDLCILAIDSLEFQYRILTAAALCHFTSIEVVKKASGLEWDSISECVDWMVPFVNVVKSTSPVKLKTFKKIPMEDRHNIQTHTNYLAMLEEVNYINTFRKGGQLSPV
Under “normalised enrichment score”, `ARYKRKLLIWDFG [N10W]` is recorded as 1.41.
For `ARYKRKILINDFG [L7I]`, “normalised enrichment score” read -0.248.
For `ACYKRKLLINDFG [R2C]`, “normalised enrichment score” read 0.182.
Under “normalised enrichment score”, `ARYKRKLLINCFG [D11C]` is recorded as 0.702.
Under “normalised enrichment score”, `ARYHRKLLINDFG [K4H]` is recorded as 0.942.
Under “normalised enrichment score”, `ARYKRKLLTNDFG [I9T]` is recorded as 0.483.
Under “normalised enrichment score”, `ARYKRKLLINDEG [F12E]` is recorded as 0.61.
Under “normalised enrichment score”, `ARYKRKLLINDDG [F12D]` is recorded as 0.838.
For `ARYLRKLLINDFG [K4L]`, “normalised enrichment score” read 1.42.
`ARYFRKLLINDFG [K4F]`: “normalised enrichment score” 1.13.
Under “normalised enrichment score”, `ARYKRKLLIKDFG [N10K]` is recorded as 0.846.
`ARYKRKSLINDFG [L7S]` — result for “normalised enrichment score”: 0.18.
For `ARYKRKLLANDFG [I9A]`, “normalised enrichment score” read 0.303.
`ARYKRKLLINVFG [D11V]`: “normalised enrichment score” 1.15.
`AYYKRKLLINDFG [R2Y]` — result for “normalised enrichment score”: 1.12.
`ARYNRKLLINDFG [K4N]`: “normalised enrichment score” 0.841.
`ARYKRKLLCNDFG [I9C]` — result for “normalised enrichment score”: 0.727.
For `ARYKKKLFINDFG [R5K L8F]`, “normalised enrichment score” read 0.587.
For `ARYKRKLLINGFG [D11G]`, “normalised enrichment score” read 1.51.
For `ARYKRKLLYNDFG [I9Y]`, “normalised enrichment score” read 1.72.
`ARYKRKLLINDMG [F12M]`: “normalised enrichment score” 0.913.
For `ARYQRKLLINDFG [K4Q]`, “normalised enrichment score” read 0.718.
`ARYKRKLLILDFG [N10L]` — result for “normalised enrichment score”: 1.8.
`ARYKRKLLSNDFG [I9S]`: “normalised enrichment score” 1.62.

Set 3
Target: Histone acetyltransferase KAT6A, both winged helices, GST fusion (KAT6A, Homo sapiens, UniProt Q92794, residues 1-181)
Method: protein binding microarray
Molecule type: double-stranded DNA, one strand shown
Matrix: in vitro
Concentration: not given
Setting: 8-mer, flanks averaged, mean of 2 arrays, mostly near background
Reference: not given
Direction: higher = stronger binding
Construct (chain): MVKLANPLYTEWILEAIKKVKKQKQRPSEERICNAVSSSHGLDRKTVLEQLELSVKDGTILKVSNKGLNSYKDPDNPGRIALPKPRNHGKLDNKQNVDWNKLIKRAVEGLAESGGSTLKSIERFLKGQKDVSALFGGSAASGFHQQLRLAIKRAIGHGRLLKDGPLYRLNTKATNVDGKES
`GAAGTAGC` gave an E-score of -0.0402.
For `CGGAGTAC`, the E-score was 0.0907.
The E-score of `GTTAACCA` is reported as -0.0277.
The E-score of `ATTCAGGG` is reported as -0.149.
For `ACTAGTGC`, the E-score was 0.0491.
With `AACAGCCG` the E-score was 0.217.
`GCAGGATA` gave an E-score of -0.146.
For `GGTATAGA`, the E-score was -0.0594.
`AAACTTGA` gave an E-score of -0.0462.
For `CTAGCCAA`, the E-score was -0.02.
With `GATGCGAA` the E-score was 0.0558.
`ATCGGGAG` has an E-score of -0.0551.
`CGGGGTAA` has an E-score of 0.147.
`ACGCCCAG` gave an E-score of -0.0381.
`AATAAACA` has an E-score of -0.0401.
The E-score of `AGATAAGA` is reported as -0.0787.
`TCGGTGCA` gave an E-score of 0.0491.
The E-score of `TAACCAAA` is reported as -0.207.
For `ATAATCGA`, the E-score was -0.0262.
With `GCACCGGC` the E-score was 0.262.
`GCCCCCAA` gave an E-score of -0.173.
For `ACCGTCCG`, the E-score was 0.234.
For `ACATAATC`, the E-score was 0.109.
The E-score of `GAACGCGA` is reported as 0.0891.
With `TACTCAGA` the E-score was -0.0453.

Set 4
Target: Interferon regulatory factor 5, full length, phosphomimetic (IRF5, Homo sapiens, UniProt Q13568-2, residues 1-514, K96S/S451D/S453D/S456D/S462D)
Method: protein-binding microarray
Molecule type: double-stranded DNA, one strand shown
Matrix: in vitro
Concentration: 250 nM
Setting: 60-bp whole probe
With: salmon DNA 0.4 mg/ml
Reference: random background probes
Direction: higher = stronger binding
Constant ends, left off below: GCCTAGCAC … GTCTTGATTCGCTTGACGCTGCTG
With `GACGGTCTCGGTATCAGGACGTGCTAG` the log fluorescence was 0.475 z-score.
`TTGATAATTTTTTTCTAAGTGTGCTAG` gave a log fluorescence of 0.601 z-score.
`GACGGTATCGCACTGGGGACGTGCTAG` gave a log fluorescence of 0.377 z-score.
For `TTTATTTTTTTTATTTATAAGTGCTAG`, the log fluorescence was 1.55 z-score.
For `GACGGTCTCCTACTTCTGACGTGCTAG`, the log fluorescence was -0.337 z-score.
`GACGGTTTCGACTAACGGGACGTGCTA` has a log fluorescence of 6.95 z-score.
The log fluorescence of `TAAGATATCAGACTGGATTAGTGCTAG` is reported as 0.325 z-score.
`TTAGGTTCCGGCTTCGGTTAGTGCTAG` has a log fluorescence of 0.992 z-score.
For `TTAGATATCGGCTTTCGATTAGTGCTA`, the log fluorescence was 8.1 z-score.
With `CCATCTCTCAAAAGTCACCCTGTGCTA` the log fluorescence was 0.036 z-score.
With `GTAGATATCAGTTTCGATTAGTGCTAG` the log fluorescence was 9.77 z-score.
`GACGATATCGGGACTGGAGACGTGCTA` gave a log fluorescence of 0.847 z-score.
The log fluorescence of `TTAGGATTCGGGACTGGGTTAGTGCTA` is reported as 0.0505 z-score.
The log fluorescence of `CACGGTTTCGGTTTCGGGACGTGCTAG` is reported as 10.7 z-score.
The log fluorescence of `GACGGACTGTGGTTTCGGGACGTGCTA` is reported as 2.46 z-score.
`TTAGGACTGTGACTGGGTTAGTGCTAG` has a log fluorescence of -0.452 z-score.
The log fluorescence of `GACGATATCAGACTGGACACGTGCTAG` is reported as 0.567 z-score.
For `CCACTCTTGCTTTTTAGATCGTGCTAG`, the log fluorescence was 0.273 z-score.
For `GACGGTTTCGGGTTGCGGGACGTGCTA`, the log fluorescence was 7.41 z-score.

Excerpt of the above (set 4):
With `CCATCTCTCAAAAGTCACCCTGTGCTA` the log fluorescence was 0.036 z-score.
The log fluorescence of `GACGGACTGTGGTTTCGGGACGTGCTA` is reported as 2.46 z-score.
`GACGGTATCGCACTGGGGACGTGCTAG` gave a log fluorescence of 0.377 z-score.
The log fluorescence of `TAAGATATCAGACTGGATTAGTGCTAG` is reported as 0.325 z-score.
`TTAGGACTGTGACTGGGTTAGTGCTAG` has a log fluorescence of -0.452 z-score.
